Assay results collected from several papers.
Parts stem from different laboratories: compare values within a part only. Positions count from the first letter of the parent shown.
Chain of UniProt Q15349 (whole entry, looked up): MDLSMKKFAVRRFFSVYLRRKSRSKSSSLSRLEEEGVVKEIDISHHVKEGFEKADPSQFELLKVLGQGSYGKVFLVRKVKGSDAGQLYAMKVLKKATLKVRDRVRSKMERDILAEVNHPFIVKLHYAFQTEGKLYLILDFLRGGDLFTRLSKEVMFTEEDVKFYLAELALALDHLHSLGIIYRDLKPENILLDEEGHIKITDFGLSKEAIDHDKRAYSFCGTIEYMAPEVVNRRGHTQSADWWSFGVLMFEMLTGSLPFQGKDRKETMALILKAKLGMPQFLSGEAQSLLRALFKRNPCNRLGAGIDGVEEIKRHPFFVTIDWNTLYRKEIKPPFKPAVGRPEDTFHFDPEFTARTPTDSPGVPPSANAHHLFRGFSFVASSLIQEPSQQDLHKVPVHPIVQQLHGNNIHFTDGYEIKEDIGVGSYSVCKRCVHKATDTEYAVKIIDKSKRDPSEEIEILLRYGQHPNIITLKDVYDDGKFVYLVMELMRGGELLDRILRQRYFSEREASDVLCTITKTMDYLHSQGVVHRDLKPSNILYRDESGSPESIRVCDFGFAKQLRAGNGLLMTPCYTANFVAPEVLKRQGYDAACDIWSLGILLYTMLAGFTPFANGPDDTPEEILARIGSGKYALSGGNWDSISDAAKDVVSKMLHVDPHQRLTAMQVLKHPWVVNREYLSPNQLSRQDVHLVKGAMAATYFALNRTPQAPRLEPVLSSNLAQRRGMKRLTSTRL

Series 1 — technique: competition protein-binding microarray; molecule type: double-stranded DNA, one strand shown; sample: in vitro; tested at: 2 µM; together with: Pho4 competitor, 0.05 µM; direction: higher = stronger binding; measurement: fluorescence intensity
Target: Centromere-binding protein 1, full length, His-tagged (CBF1, Saccharomyces cerevisiae, UniProt P17106, residues 1-351)
Chain of UniProt P17106 (whole entry, looked up): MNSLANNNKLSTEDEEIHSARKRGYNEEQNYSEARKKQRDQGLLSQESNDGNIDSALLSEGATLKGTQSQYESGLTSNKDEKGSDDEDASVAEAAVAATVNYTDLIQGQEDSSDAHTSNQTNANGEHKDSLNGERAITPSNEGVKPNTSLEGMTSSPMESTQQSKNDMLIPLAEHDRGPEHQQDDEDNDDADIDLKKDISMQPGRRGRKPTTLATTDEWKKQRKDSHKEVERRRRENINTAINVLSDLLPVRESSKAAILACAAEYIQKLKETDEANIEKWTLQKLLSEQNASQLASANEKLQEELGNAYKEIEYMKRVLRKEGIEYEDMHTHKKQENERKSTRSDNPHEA
Setting: whole 60-bp probe, lowest competitor level
AAGACAAATGGTCGGCCCGTGACGGTTGCAGGCCCAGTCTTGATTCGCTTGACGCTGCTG: 97.8 a.u.
GTCTCCACAGCTTTTGACATGACAATCTCGGCGCAAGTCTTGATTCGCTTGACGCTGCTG: 68 a.u.
CCAAGCCGCCAGCCCCGCGTGCGGCCTGCCGCGAGGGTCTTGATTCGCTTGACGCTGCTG: 45.6 a.u.
CGTCCTAGTGATTTTCACGTGGCCTCCATGAGGAAGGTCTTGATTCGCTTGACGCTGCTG: 906 a.u.
CGTCCTAGTGATTGGGGCGTGGGTGCCATGAGGAAGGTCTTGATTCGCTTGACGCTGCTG: 84.3 a.u.
TTGACGCTGTGTCTCCTCGTGTGAAATCGCAGTACAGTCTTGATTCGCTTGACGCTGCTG: 67.9 a.u.
CACCGCCCCCAGGTAACCGTGCGGAATGAGCTAATCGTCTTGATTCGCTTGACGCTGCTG: 73.3 a.u.
GGAGTTAAAGTCGACCACGGGTCCTTTGGAGCATAGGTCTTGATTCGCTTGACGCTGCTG: 85.9 a.u.

Series 2 — target: vanadate, free oxyanion; technique: microfluidic competitive inhibition; sample: in vitro, cell-free expressed; tested at: not given; direction: lower = stronger binding; measurement: oxyanion analog dissociation constant
Setting: derived from inhibition constants, unchanged parent 676 nM
Starting sequence: PafA, mature enzyme, eGFP fusion (Elizabethkingia meningoseptica, UniProt Q9KJX5); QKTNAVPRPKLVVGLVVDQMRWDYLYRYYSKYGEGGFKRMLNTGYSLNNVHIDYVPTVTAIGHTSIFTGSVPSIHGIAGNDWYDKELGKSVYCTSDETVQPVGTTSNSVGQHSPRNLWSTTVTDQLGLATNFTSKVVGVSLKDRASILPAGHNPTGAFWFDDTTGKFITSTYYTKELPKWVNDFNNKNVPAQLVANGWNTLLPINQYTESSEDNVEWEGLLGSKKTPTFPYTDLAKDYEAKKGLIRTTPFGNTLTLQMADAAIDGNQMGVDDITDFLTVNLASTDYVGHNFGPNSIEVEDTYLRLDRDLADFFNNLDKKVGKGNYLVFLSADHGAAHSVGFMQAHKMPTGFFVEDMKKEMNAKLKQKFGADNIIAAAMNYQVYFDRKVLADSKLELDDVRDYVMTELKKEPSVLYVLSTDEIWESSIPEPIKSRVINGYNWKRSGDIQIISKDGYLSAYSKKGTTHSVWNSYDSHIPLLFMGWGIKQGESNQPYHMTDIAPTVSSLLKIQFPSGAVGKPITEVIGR
I449G: 611 nM
I476G: 6.71 µM
S467V: 2.73 µM
T274V: 679 nM
N4V: 667 nM

Series 3 — target: CCND3, cyclin fold, Cln2 fusion (human); technique: yeast growth competition, sequencing; sample: yeast; setting: weak parent motif; relative to: not given; direction: higher = stronger binding; measurement: normalised enrichment score; starting sequence: viral docking peptide; KGVKRKLFAEDSS
K4W: -0.657
S12I: 0.163
D11Y: 0.219
A9G: 0.0637
R5F: 0.135
G2R: 0.152

Mixed results
Cc1cc(C)c(-n2ccn3nc(-c4cccnc4)cc23)cc1NC(=O)c1cc(C#N)cc(S(F)(F)(F)(F)F)c1 — remaining binding (Ribosomal protein S6 kinase alpha-2, N-terminal kinase domain (RPS6KA2, Homo sapiens, UniProt Q15349); cell-free assay, competition with immobilised ligand; 0.1 µM): 90.9%

Excerpt of the above (series 1):
CCAAGCCGCCAGCCCCGCGTGCGGCCTGCCGCGAGGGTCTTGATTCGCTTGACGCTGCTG: 45.6 a.u.
CGTCCTAGTGATTTTCACGTGGCCTCCATGAGGAAGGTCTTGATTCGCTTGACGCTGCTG: 906 a.u.
CGTCCTAGTGATTGGGGCGTGGGTGCCATGAGGAAGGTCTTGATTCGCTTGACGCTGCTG: 84.3 a.u.
